Results from different studies.
Parts stem from different laboratories: compare values within a part only.

Block 1
Target: RNA binding protein fox-1 homolog 2, RRM domain, GST-SBP tag (RBFOX2, Homo sapiens, UniProt O43251-10, residues 100-194)
Technique: RNA Bind-n-Seq
Form: RNA
Sample: in vitro
Concentration: 365 nM
Notes: natural RNA segment, single round, ends assumed
Baseline: no-protein control
Reading: higher = stronger binding
All sequences stand within: GGGAGUUCUACAGUCCGACGAUC … UGGAAUUCUCGGGUGCCAA
Construct (chain): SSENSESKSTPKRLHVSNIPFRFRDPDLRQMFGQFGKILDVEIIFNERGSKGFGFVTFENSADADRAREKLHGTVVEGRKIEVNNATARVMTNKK
Strand	RBNS enrichment (R)
UCUUUGCUAGUUGGAGUGCUUGUUUACUAAGCAUGUGCCGUCGUAGGUAUUAGUGCUAGUCUCAGAUAGGUGCUUCCCCUGAGGUGCAGGGGAAGACCAAAGUUUGCAAC	2.3
CUGGGAACUCUCCCAUUUUCAGGUUUCUAGAGCUGUCGAUAAAAUCCUGUGAACUGAGAGCGAGGAGCAGUGUAGGAAAUUGCAAUGUGUGGUUCAUGCAUUGUCUUUGA	0.419
UUCUGAAGAUUUUUUUGAAGAUUAAUUUAUACCCUAUAAAAUAAAACUUGUUAGCUUCGAUGAAGUCACUUCAUCUUCUCUCCUGCCUUAUUUUUUUAAAUAAGUUUUUA	0.942
UGGGCUGUGGUGGUGUUGAUCAGUUGCUCCAGUGUUUGAAAUAAGAAGACUCAUGUUUAUGUCUGGAAUAAGUUCUGUUUGUGCUGACAGGUGGCCUAGGUCCUGGAGAU	2.46
CACAUGGAAUUCCGUUUUCUGAGGUACAGCACAUUUUAGGUAACAGUAUUUAACUUGAAAUUCAUCAUGGGAGUCUGCUGCUAUACCAGGCACAAGAUAAAACUCCAAAA	0.461
UCUGUUAGGGAAAUCACCAGCUUUGGCAUCUUAACAACAAACAGUGGAUGGGUAAUUUUUAUUUCUGAUACGCAUCUUUAGAGUCAAAUAUAUCUUUUCCCUGUACUCCU	1.65
UGCCUGCCAUGGCCACAGGCUCUCUCUGUGCAUUCUCUCUGGAGUUAGCCUGCUUCUCACAGGACACUUGUGACAGCAGAGCUGGGGGUGGUUUUCCAGCCUCGACCCAC	0.482
UAUUUAGAGAAAAGACUUAAUCAAUUAGUAAAUAAAAUUGCCUAUGGCAGGAUUCUUUCUUGAAUUAAUAUUAAUCCUUAAAUUGAUUUUUCUGGGAUUAUACAAAUUCC	0.521
AAAACAACUUGGUAUUUAAGUAUGAAGUGGAUGAAAUGUUUAUUUAUUUAAGGUGAAAGCAUUUGACCCAGGGUGUCUUCAUCUUCAAUUUGGGUUUAAUGUUAUAGAAA	0.701
CUGAGCAGGCGCUUCCAUUGCCGUCUCACUAUGAGAGCAUACCUGGAUGUCCAGGCAAGACUGGGCGAAGUUUCUGAGUGGCCCUUUGUUUAGGUGACGUCCUCAGACCU	0.249
GAACUGUAUUAGUGUUGUACCAGCCUAUUAACCUCUUGUCUGUGCACAGCUUCAAAUGUUACCGUCUAGUUAGAUUUUUAUUUAAAAUAUGAAAAACUGCUUUUCCCAAG	0.428
ACAAGGCGUGUGAAGGCUUCCCAGAAGUUCCUGUCCACAUUGCCUCCGCCCACCGACGCCAUGGGCACACUGCUCCCUCCUCCUCCUCCAGCUACUUUGUGUUGAACACA	0.552

Block 2
Target: RING finger protein unkempt homolog, zinc fingers 1-6, SBP tag (UNK, Homo sapiens, UniProt Q9C0B0, residues 30-357)
Sequence of UniProt Q9C0B0 (30-357, looked up): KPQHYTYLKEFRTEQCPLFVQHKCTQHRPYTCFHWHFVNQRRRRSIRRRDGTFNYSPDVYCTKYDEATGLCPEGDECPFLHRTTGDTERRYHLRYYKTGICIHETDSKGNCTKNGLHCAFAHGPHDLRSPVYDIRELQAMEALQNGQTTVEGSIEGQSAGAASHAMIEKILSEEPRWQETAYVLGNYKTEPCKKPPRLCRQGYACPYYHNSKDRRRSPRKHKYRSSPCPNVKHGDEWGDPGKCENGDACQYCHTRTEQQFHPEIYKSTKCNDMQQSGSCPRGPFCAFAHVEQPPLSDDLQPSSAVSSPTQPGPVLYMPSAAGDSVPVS
Technique: RNA Bind-n-Seq
Form: RNA
Sample: in vitro
Concentration: 100 nM
Notes: RNA with constant flanks, vertebrate orthologous sites, ends assumed
Baseline: input RNA pool
Reading: higher = stronger binding
All sequences stand within: GGGAGUUCUACAGUCCGACGAUC … CAACAGAGGAUUGAGCAUCA
Strand	bound/input enrichment [ratio]
AGAGAAUUUUAAUCAAGAAUCUGAAAGUAGAAAUACAGGACCAUGGUUAUCUUCCUCACUUAGAAAUAGAUGCACACCUUUGUUCUCCAGAAGGCGGCGAGAGGGACGAGAUGAAUCUUC	1.14
GAGGCAUGUCCUGUAGCUGUGUUCAAACACCUCACAGUACUCACUCUGUCCCAACAAUUCUAAUUGCCUAGAAAUAUCCUUCUCUUACCUGUUAUUUAUCAAUUUUUCCCAGUAUUUUUA	2.31
GUUAGGUCAUGACCCUUACAGGCUAGGUCAUGAUGCCUACAGGUUAGGGCAGGACCCCUAUAGAUUAGGCCAUGAUCCCUACAGACUAACUCCUGAUCCCUAUAGGAUGUCACCUAGACC	0.788
GACGCUUUGAUGUAAAAUUUGAAAUAAAGAGCAGCUGAUCACAAGCACAAUCUUCCCCCUUAGCCAUUUAAAAAAGUUAAAAAAUUAUAAAAAACAAAAACCUACUAGUCUUGAACAAAC	2.99
GUCCUUUCACACUGUCCCUGGCCAGGGUCGAGGACUGGAGGCUUCACUGAGGACCCACAUUUCAGUUUUCUACAUCAUUGUCCAGAAAGAGAUGUGACUGAAAUGGUCGAGUGUCUCUUU	0.318
GUUUAGGUAGGGGUAACCAUUAAUUUAUUUAAAAGAAAGAAAUGAAAUGUUAAAAAUCAUUAGUACUAAGUUGAGUUGGAGAACUUCUCCAGCUACACUUCAUUCUCUCAUUCUGCAUUC	2.29
AAUCAAUAGGAUUACAUAAUACUAAAGUUGCAGUUGAAAGAAUAUCCAAGUAUGUGUUCGUAGUUACUAAAAAAAUUAUAGCUGUUAUUGCCUUGUGUUUAUAGCCCUGUUUCAGGUUUC	2.03
ACAUGCCACUGUCACCAAAACAAACAACUACCACUUUCCAAAUUUCAUUCAGAACCAUUUUAGUGUUUUCCUAUUCCCUACCCCUCCCACUACUUUCAAUGAUGAAAUACCCUAAGUUAA	6.94
UUUUAAAGUCACUUUUCCCAUUUCUUGUAAAUAGUGGAUAAUCAUUUUUAUUUUAUUUUUAAGUGCUGUUUUAACAUAUGGAUAGAUCAUAAAUGUACUUGCUGAAUUUAUUCAUGUUUU	0.381
AGUUGAUGUUUUAAAGAAUCAUUUGGUAAAAGAAGGUCGAGUUGAUGAAGAAAUUGCACUUAGAAUUAUUAAUGAGGGUGCUGCCAUCCUUCGGAGAGAGAAAACCAUGAUAGAAGUAGA	0.741
UGGAUGCAGUGUAUAAAUUAUACAAGGCAGUGUCUUCAGCUUUAUAUAUAGAGAGAGAGAUUGUUAGUUUUAAAGUCAUCUACUUUUAUUUAAACUUCUAGAUUGGAUUGUUUGCUAUUG	0.742

Block 3
Target: Sal-like protein 4, full length isoform B (SALL4, Homo sapiens, UniProt Q9UJQ4-2, residues 1-616)
Technique: universal PBM
Form: double-stranded DNA, one strand shown
Sample: in vitro
Concentration: not given
Notes: 8-mer, flanks averaged, mean of replicates
Reading: higher = stronger binding
Strand	E-score
GGAGGCTA	-0.198
GCAGAACA	-0.0616
CACTGTGC	-0.108
CCGAGGGC	-0.317
CCAGTTGC	-0.262
ACTTTCAG	-0.00105
AGAGTAAC	-0.111
CCATCCAC	-0.184
ATCAGTAA	0.261
ACCCTAAA	-0.0699
ACCTAATG	-0.0475
ACCAACTC	-0.0878
ATTGCACG	0.00098
AGGGCGAA	-0.139
CGGTGAGA	-0.139
CTTTTTAC	0.111
ACACCTGG	-0.117
CGATTGGC	-0.0893
ATGCTGCA	-0.0318
AGCCTGCG	-0.26
GAGTATGA	0.158
AAACATCA	0.215
GAGAGCTC	-0.189
ATCGATGA	0.103
ATTTTCTG	0.154

Block 4
Target: Interferon regulatory factor 3, full length, phosphomimetic (IRF3, Homo sapiens, UniProt Q14653, residues 1-427, S386D/S396D/S398D/S402D/T404D/S405D)
Sequence of UniProt Q14653 (whole entry, unmodified, looked up): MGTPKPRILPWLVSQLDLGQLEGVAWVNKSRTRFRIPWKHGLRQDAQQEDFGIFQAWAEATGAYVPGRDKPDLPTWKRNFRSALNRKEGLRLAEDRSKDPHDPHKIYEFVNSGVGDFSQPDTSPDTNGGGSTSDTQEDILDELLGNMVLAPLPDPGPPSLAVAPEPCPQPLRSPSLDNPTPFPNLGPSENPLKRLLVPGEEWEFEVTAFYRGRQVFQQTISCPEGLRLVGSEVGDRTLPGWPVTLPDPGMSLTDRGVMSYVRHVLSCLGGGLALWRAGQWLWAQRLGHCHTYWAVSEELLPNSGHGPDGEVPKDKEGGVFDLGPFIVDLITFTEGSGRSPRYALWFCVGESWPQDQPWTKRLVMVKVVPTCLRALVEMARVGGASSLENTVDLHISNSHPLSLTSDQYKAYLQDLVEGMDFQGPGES
Technique: protein-binding microarray
Form: double-stranded DNA, one strand shown
Sample: in vitro
Concentration: 2540 nM top
Notes: 60-bp whole probe
With: salmon DNA 0.4 mg/ml
Baseline: random background probes
Reading: higher = stronger binding
All sequences stand within: GCCTAGCAC … GTCTTGATTCGCTTGACGCTGCTG
Strand	fitted relative affinity [z-score]
TTAGGTTGCGGACTGGGTTAGTGCTAG	1.21
GACGAACTGAGTCTCTAGACGTGCTAG	-0.255
TCAGCTCTGATGTTGGGACTGTGCTAG	-0.607
TCACATTGAGATTTCCAACTGTGCTAG	0.792
GACGGTAACCTTCTCCTGACGTGCTAG	1.87
GACGGTATCGACACTGGGTACGTGCTA	0.673
GAGGATATCGGGACTGGAGACGTGCTA	-0.381
GACGGACTGGGTAGCGGGACGTGCTAG	-0.676
CACATTCTCTGCTTGGGTCTGTGCTAG	2.27
TCAAACTTCCCAATGGTACTGTGCTAG	0.339
TCACTTTACACACATCATCTTGTGCTA	1.47
TTAGATATCGGGATTGGATTAGTGCTA	0.15
TCCCCTTCTACTCTCCTGCAGTGCTAG	2.44
GACGGTTTCCGTTCCGGGACGTGCTAG	8.19
TTAGATAACGGGTTTCGATTAGTGCTA	1.7
CTGCCCTGGTTCCCCTGCCTGTGCTAG	-0.452
GACGGTCTCCGTTTCCTGACGTGCTAG	3.42
TCAGTCACCCATCTCAAACTGTGCTAG	1.71
GCCGGTCTCGGACTGGGGACGTGCTAG	0.856
CTTTAACTCATTTTCATTTTGTGCTAG	2.03
TTAGAACCGAGACTGGATTAGTGCTAG	-0.0475
GCCGGTTTCGGACTGGGGACGTGCTAG	4.78
TTCACTTTCTTTAACATATTGTGCTAG	2.75
GACGATTTCGGGTATCGTGACGTGCTA	1.69
TTAGGTTTCCTTTTCCTTTTGTGCTAG	12.4

Repeated from above (block 4):
Strand	fitted relative affinity [z-score]
GACGGTATCGACACTGGGTACGTGCTA	0.673
GAGGATATCGGGACTGGAGACGTGCTA	-0.381
GACGGACTGGGTAGCGGGACGTGCTAG	-0.676
CACATTCTCTGCTTGGGTCTGTGCTAG	2.27
TCAAACTTCCCAATGGTACTGTGCTAG	0.339
TCACTTTACACACATCATCTTGTGCTA	1.47
TTAGATATCGGGATTGGATTAGTGCTA	0.15
TCCCCTTCTACTCTCCTGCAGTGCTAG	2.44
GACGGTTTCCGTTCCGGGACGTGCTAG	8.19
